Published values of several laboratories.
Each line is one published result; not all experiments were run side by side. ± marks the error that the study gave.

N=C(N)NCCC[C@@H]1NC(=O)[C@H](CCCCNC(=O)CNC(=O)CNC(=O)CNC(=O)CC[C@H](NC(=O)CCOCCOCCOCCOCCNC(=O)CC[C@H](NC(=O)CN2CCN(CC(=O)O)CCN(CC(=O)O)CCN(CC(=O)O)CC2)C(=O)NCCOCCOCCOCCOCCC(=O)N[C@@H](CCC(=O)NCC(=O)NCC(=O)NCC(=O)NCCCC[C@@H]2NC(=O)[C@@H](Cc3ccccc3)NC(=O)[C@H](CC(=O)O)NC(=O)CNC(=O)[C@H](CCCNC(=N)N)NC2=O)C(=O)NCC(=O)NCC(=O)NCC(=O)NCCCC[C@@H]2NC(=O)[C@@H](Cc3ccccc3)NC(=O)[C@H](CC(=O)O)NC(=O)CNC(=O)[C@H](CCCNC(=N)N)NC2=O)C(=O)NCC(=O)NCC(=O)NCC(=O)NCCCC[C@@H]2NC(=O)[C@@H](Cc3ccccc3)NC(=O)[C@H](CC(=O)O)NC(=O)CNC(=O)[C@H](CCCNC(=N)N)NC2=O)NC(=O)[C@@H](Cc2ccccc2)NC(=O)[C@H](CC(=O)O)NC(=O)CNC1=O [indium-111 labelled] — tissue uptake (female athymic nude mice, spleen; intravenous, 3 µCi, 0.5 h, U-87 MG glioma xenograft): 2.97 ± 0.61 %ID/g
N=C(N)NCCC[C@@H]1NC(=O)[C@H](CCCCNC(=O)CNC(=O)CNC(=O)CNC(=O)CC[C@H](NC(=O)c2ccc(NN=Cc3ccccc3S(=O)(=O)O)nc2)C(=O)NCC(=O)NCC(=O)NCC(=O)NCCCC[C@@H]2NC(=O)[C@@H](Cc3ccccc3)NC(=O)[C@H](CC(=O)O)NC(=O)CNC(=O)[C@H](CCCNC(=N)N)NC2=O)NC(=O)[C@@H](Cc2ccccc2)NC(=O)[C@H](CC(=O)O)NC(=O)CNC1=O [technetium-99m labelled] — tissue uptake (athymic nu/nu mouse, female, MDA-MB-435 xenograft, muscle; intravenous, 120 min): 1.6 ± 0.32 %ID/g
CCCC[C@H](NC(=O)CNC(=O)CNC(=O)c1ccc(NN)nc1)C(=O)N[C@H]1CC(=O)NCCCC[C@@H](C(N)=O)NC(=O)[C@H](Cc2c[nH]c3ccccc23)NC(=O)[C@H](CCCNC(=N)N)NC(=O)[C@@H](Cc2ccccc2)NC(=O)[C@H](Cc2c[nH]cn2)NC1=O [technetium-99m labelled] — tissue uptake (C57 mouse, B16/F1 melanoma-bearing, heart; intravenous, 4 h): 0.05 ± 0.04 %ID/g
N=C(N)NCCC[C@@H]1NC(=O)[C@H](CCCCNC(=O)CCOCCOCCOCCOCCNC(=O)CC[C@H](NC(=O)CCOCCOCCOCCOCCNC(=O)CC[C@H](NC(=O)CN2CCN(CC(=O)O)CCN(CC(=O)O)CCN(CC(=O)O)CC2)C(=O)NCCOCCOCCOCCOCCC(=O)N[C@@H](CCC(=O)NCCOCCOCCOCCOCCC(=O)NCCCC[C@@H]2NC(=O)[C@@H](Cc3ccccc3)NC(=O)[C@H](CC(=O)O)NC(=O)CNC(=O)[C@H](CCCNC(=N)N)NC2=O)C(=O)NCCOCCOCCOCCOCCC(=O)NCCCC[C@@H]2NC(=O)[C@@H](Cc3ccccc3)NC(=O)[C@H](CC(=O)O)NC(=O)CNC(=O)[C@H](CCCNC(=N)N)NC2=O)C(=O)NCCOCCOCCOCCOCCC(=O)NCCCC[C@@H]2NC(=O)[C@@H](Cc3ccccc3)NC(=O)[C@H](CC(=O)O)NC(=O)CNC(=O)[C@H](CCCNC(=N)N)NC2=O)NC(=O)[C@@H](Cc2ccccc2)NC(=O)[C@H](CC(=O)O)NC(=O)CNC1=O [indium-111 labelled] — tissue uptake (female athymic nude mice, liver; intravenous, 3 µCi, 1 h, U-87 MG glioma xenograft): 4 %ID/g
CSCC[C@H](NC(=O)[C@H](CC(C)C)NC(=O)[C@H](Cc1c[nH]cn1)NC(=O)CNC(=O)[C@@H](NC(=O)[C@H](C)NC(=O)[C@H](Cc1c[nH]c2ccccc12)NC(=O)[C@H](CCC(N)=O)NC(=O)CCCCCNC(=O)CNC(=O)CNC(=O)CNC(=O)CSC(C)=O)C(C)C)C(N)=O [technetium-99m labelled] — tissue uptake (nude mouse, PC-3 xenograft, lung; 30 min, together with: excess unlabelled conjugate): 1.4 ± 0.23 %ID/g
N=C(N)NCCC[C@@H]1NC(=O)[C@H](CCCCNC(=O)CC[C@H](NC(=O)CCOCCOCCOCCOCCNC(=O)CC[C@H](NC(=O)CN2CCN(CC(=O)O)CCN(CC(=O)O)CCN(CC(=O)O)CC2)C(=O)NCCOCCOCCOCCOCCC(=O)N[C@@H](CCC(=O)NCCCC[C@@H]2NC(=O)[C@@H](Cc3ccccc3)NC(=O)[C@H](CC(=O)O)NC(=O)CNC(=O)[C@H](CCCNC(=N)N)NC2=O)C(=O)NCCCC[C@@H]2NC(=O)[C@@H](Cc3ccccc3)NC(=O)[C@H](CC(=O)O)NC(=O)CNC(=O)[C@H](CCCNC(=N)N)NC2=O)C(=O)NCCCC[C@@H]2NC(=O)[C@@H](Cc3ccccc3)NC(=O)[C@H](CC(=O)O)NC(=O)CNC(=O)[C@H](CCCNC(=N)N)NC2=O)NC(=O)[C@@H](Cc2ccccc2)NC(=O)[C@H](CC(=O)O)NC(=O)CNC1=O [indium-111 labelled] — tissue uptake (female athymic nude mice, intestine; intravenous, 3 µCi, 72 h, U-87 MG glioma xenograft): 1.03 ± 0.1 %ID/g
N=C(N)NCCC[C@@H]1NC(=O)[C@H](CC(=O)NC23CNCCNCC(N)(CNCCNC2)CNCCNC3)NC(=O)[C@@H](Cc2ccccc2)NC(=O)[C@H](CC(=O)O)NC(=O)CNC1=O [copper-64 labelled] — tissue uptake (Nu/Nu mouse, male, tumour-bearing, blood; intravenous, 10 µCi, 4 h): 0.06 ± 0.02 %ID/g
CCCC[C@H](NC(=O)CCCCCCCNC(=O)c1ccc(NN)nc1)C(=O)N[C@H]1CC(=O)NCCCC[C@@H](C(N)=O)NC(=O)[C@H](Cc2c[nH]c3ccccc23)NC(=O)[C@H](CCCNC(=N)N)NC(=O)[C@@H](Cc2ccccc2)NC(=O)[C@H](Cc2c[nH]cn2)NC1=O [technetium-99m labelled] — tissue uptake (C57 mouse, B16/F1 melanoma, intestines; intravenous, 0.037 MBq, 2 h): 1.85 ± 0.51 %ID
CSCC[C@H](NC(=O)[C@H](CC(C)C)NC(=O)[C@H](Cc1c[nH]cn1)NC(=O)CNC(=O)[C@@H](NC(=O)[C@H](C)NC(=O)[C@H](Cc1c[nH]c2ccccc12)NC(=O)[C@H](CCC(N)=O)NC(=O)CNC(=O)[C@H](CO)NC(=O)CNC(=O)CCCCCCCNC(=O)CCC(=O)Nc1ccc(CNC23CNCCNCC(N)(CNCCNC2)CNCCNC3)cc1)C(C)C)C(N)=O [copper-64 labelled] — tissue uptake (female SCID mice, PC-3 xenograft, liver; intravenous, 0.6 MBq, 24 h): 2.82 ± 0.274 %ID/g

A few entries again:
N=C(N)NCCC[C@@H]1NC(=O)[C@H](CCCCNC(=O)CC[C@H](NC(=O)CCOCCOCCOCCOCCNC(=O)CC[C@H](NC(=O)CN2CCN(CC(=O)O)CCN(CC(=O)O)CCN(CC(=O)O)CC2)C(=O)NCCOCCOCCOCCOCCC(=O)N[C@@H](CCC(=O)NCCCC[C@@H]2NC(=O)[C@@H](Cc3ccccc3)NC(=O)[C@H](CC(=O)O)NC(=O)CNC(=O)[C@H](CCCNC(=N)N)NC2=O)C(=O)NCCCC[C@@H]2NC(=O)[C@@H](Cc3ccccc3)NC(=O)[C@H](CC(=O)O)NC(=O)CNC(=O)[C@H](CCCNC(=N)N)NC2=O)C(=O)NCCCC[C@@H]2NC(=O)[C@@H](Cc3ccccc3)NC(=O)[C@H](CC(=O)O)NC(=O)CNC(=O)[C@H](CCCNC(=N)N)NC2=O)NC(=O)[C@@H](Cc2ccccc2)NC(=O)[C@H](CC(=O)O)NC(=O)CNC1=O [indium-111 labelled] — tissue uptake (female athymic nude mice, intestine; intravenous, 3 µCi, 72 h, U-87 MG glioma xenograft): 1.03 ± 0.1 %ID/g
N=C(N)NCCC[C@@H]1NC(=O)[C@H](CC(=O)NC23CNCCNCC(N)(CNCCNC2)CNCCNC3)NC(=O)[C@@H](Cc2ccccc2)NC(=O)[C@H](CC(=O)O)NC(=O)CNC1=O [copper-64 labelled] — tissue uptake (Nu/Nu mouse, male, tumour-bearing, blood; intravenous, 10 µCi, 4 h): 0.06 ± 0.02 %ID/g
